Published values of several laboratories.
A part holds a random share of what one study measured.

Series 1 — method: RNA Bind-n-Seq; molecule type: RNA; sample: in vitro; concentration: 365 nM; relative to: no-protein control; direction: higher = stronger binding
Target: RNA binding protein fox-1 homolog 2, RRM domain, GST-SBP tag (RBFOX2, Homo sapiens, UniProt O43251-10, residues 100-194)
Setting: natural RNA segment, single round, ends assumed
Constant ends, left off below: GGGAGUUCUACAGUCCGACGAUC … UGGAAUUCUCGGGUGCCAA
Residues (chain): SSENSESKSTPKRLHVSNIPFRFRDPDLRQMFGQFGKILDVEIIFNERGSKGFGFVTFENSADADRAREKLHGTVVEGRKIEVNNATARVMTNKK
| Strand | RBNS enrichment (R) |
| --- | --- |
| UUUUCUUGUAAAUGUGUUGGACAAAUGUGAAGAUGCAUUGUAGUUUAACCAUAUGCCCACAUUUAGUCUCUUUAUUCCUAGUUGGUGAGAAACCUGUAUCUUUCUAUGCU | 0.343 |
| UAGAUACGUGAUGUCUGGUCAUGUAGUGAGGGCCUUGGGGGCUUGCCUUUGAAUGCUAUAGCAUAUUUAGUGUGAGGACUGGGGACCCAGUAAGAUUUAGAGAGCAAUAU | 1.93 |
| CACCCCAAGGUGACCAGCCAUGGCCUGUCAUACUUAGGAGAGCAAGCUUUUUGCGGGUACAGAGCAGGCUUUGGGGGGUAACCAGCUAGCUGCUGCUAGGCCUUUAUUCC | 0.249 |
| GGGGGUUAGGCCUGUGUGCCCCCUCAACCCAUAACUGCUGUCAAACAAAGCAAACCUUGUAAAGUGAUAGCCUCCUGGAUUUUUCCUCCCUGCCUUCUGACGCUCAGCAG | 0.869 |
| CUGGCAUAUCACCCCGCACUGUGGGGCCAGGCACCACUAGCCUGGCUCAAAUAUUCCCCAGGGAGACUGCUGUGUGCUGCCCGCCUGCCUGCUGGCUCUCCCCCAGCCCC | 0.532 |
| UUAGAGUCCUGGAGUGACCACAGCCCCUGCCCCCUGUCCCUGAGAGGUACAAGAGCCUGUUUACCUCAUAGAGUGUUUGGGCUCGGAAGUAAAAGUGAAGUUAUUUUGAA | 0.43 |
| UUAAUUUCCUUUCUGGGCACCUUUUGUCCCCUACUUUUAAAUUAACGGUGAAACGGCCCUAGGAGGGUCGCUCUAGUUGAACUCUCCAGGCAGGACCUUAUGCUCAGAAA | 0.297 |
| GUUCAACGCUCAGCUUUUCCGAAAACCUAAAGCUUGUGUUCUCUUUGCUUUGACUGCAAAUUGUACUGCUCUUGUUUUUUUAAUUUUUUUCUUGGUCAUGGUCUGUAAAU | 0.84 |
| UGUUUGAUUCAACACUGCACUAAGGGGGAAAUGUUCCAUUGAAUAAAAGAGCAGUGUGGUUUUCCGGGUCCGUUUCUUUUCUUUUAAAACCUUUUUCCUGACCAUCAGCA | 0.965 |
| UGGGAUGCAGGACCCCAGCUUCCGUUCCCAAGCCCUGUUGGGAGUCCUUUCCAGUGCUUCAGGAUGCUGGGGCGACCAAAGGAGCCUUUUAAAAAAUGUUUUUAUACAAA | 0.492 |
| AUCCCGACACAGCUCUGUGCCUUCAGCCCCAGGUCCACAGCGGGGACACUCGAGCCUCUGCUCUCACCUUGCCCUGUUUGGGUUUUUAUCAGCCGUGUCUGCAUUGGAGC | 0.406 |
| UUAAUGCUUGUCUAUAACAUUGGAGCCAUCACAAGAAUGUUCAUUUGGAAUGAAGGCUGCAGGCACUGGUUGCAGACGUCUUUAUAGGCAGUCACCAUGUUGUCAAACCU | 0.192 |

Series 2 — method: RNA Bind-n-Seq; molecule type: RNA; sample: in vitro; concentration: 200 nM; setting: whole 134-nt RNA, ends assumed; with: 150 mM KCl; relative to: input library; direction: higher = stronger binding
Target: Fragile X messenger ribonucleoprotein 1, C-terminal low-complexity region (Fmr1, Mus musculus, UniProt P35922)
Constant ends, left off below: GGGAGUUCUACAGUCCGACGAUC … UGGAAUUCUCGGGUGUCAAGG
| Strand | log2 enrichment |
| --- | --- |
| AAGUCCUGUGCUACACAUCGUAUGUACCGAAUCGGUUUGGUUUUUGGUUUUUUUGGAAAGUAUUAUGUUACGCCGUUCGGAUCUGCACUU | -0.932 |
| UCAAGUCCUGUGCUACACAUCGUAUGUACCGAAUCGGGUUUUUGGGAGGGAGGGAAAGUAUUAUGUUACGCCGUUCGGAUCUGCACUUCC | 1.12 |
| UCAAGUCCUGUGCUACACAUCGUAUGUACCGAAUCGGAAAAAGGAAAGGAAAGGAAAGUAUUAUGUUACGCCGUUCGGAUCUGCACUUCC | -0.968 |
| GCAGGAAGUAAAAACAAAUGGAAAUGCUUCGGAUAGUGGCAGGGGUGGGGGUUGCUAUGGAAAGGGUGGGAUGGGAGUGGGUAAAGAGUU | 0.22 |
| CAAGUCCUGUGCUACACAUCGUAUGUACCGAAUCGGGAAAGGGGAAAGGGAAAGGAAAGUAUUAUGUUACGCCGUUCGGAUCUGCACUUC | -0.097 |
| CUGUGCUACACAUCGUAUGUACCGAAUCGGGAAAAAAAGGGAAAAAAAGGGAAAAAAAGGGGAAAGUAUUAUGUUACGCCGUUCGGAUCU | -0.376 |
| UCAAGUCCUGUGCUACACAUCGUAUGUACCGAAUCGGAAAAAGGUUUGGUUUGGAAAGUAUUAUGUUACGCCGUUCGGAUCUGCACUUCC | -0.814 |
| AGUCCUGUGCUACACAUCGUAUGUACCGAAUCGGGUUUUUUUGGGAGGGUUUUUGGGAAAGUAUUAUGUUACGCCGUUCGGAUCUGCACU | 0.438 |
| GUCCUGUGCUACACAUCGUAUGUACCGAAUCGGGAAAAAAAGGGUUUUUUUGGGAGGGAAAGUAUUAUGUUACGCCGUUCGGAUCUGCAC | 0.0762 |
| GUCCUGUGCUACACAUCGUAUGUACCGAAUCGGGGCCCCGGGGCCCCGGGCCCCGGGGAAAGUAUUAUGUUACGCCGUUCGGAUCUGCAC | -0.0567 |

Series 3 — method: RNA Bind-n-Seq; molecule type: RNA; sample: in vitro; concentration: 100 nM; relative to: input RNA pool; direction: higher = stronger binding
Target: RING finger protein unkempt homolog, zinc fingers 1-6, SBP tag (UNK, Homo sapiens, UniProt Q9C0B0, residues 30-357)
Chain of UniProt Q9C0B0 (30-357, looked up): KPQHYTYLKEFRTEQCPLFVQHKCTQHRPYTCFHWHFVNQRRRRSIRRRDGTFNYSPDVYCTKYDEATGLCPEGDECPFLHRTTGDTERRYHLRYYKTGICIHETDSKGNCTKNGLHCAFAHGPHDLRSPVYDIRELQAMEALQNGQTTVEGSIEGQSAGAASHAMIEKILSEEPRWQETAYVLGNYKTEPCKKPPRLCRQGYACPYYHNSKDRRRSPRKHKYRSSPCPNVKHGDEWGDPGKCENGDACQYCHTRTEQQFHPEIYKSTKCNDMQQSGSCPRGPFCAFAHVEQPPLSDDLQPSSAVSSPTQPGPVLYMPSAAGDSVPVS
Setting: RNA with constant flanks, vertebrate orthologous sites, ends assumed
Constant ends, left off below: GGGAGUUCUACAGUCCGACGAUC … CAACAGAGGAUUGAGCAUCA
| Strand | bound/input enrichment [ratio] |
| --- | --- |
| AUUAAAUGUGUAUCAAAUGCUGGAUGUAACAUUAAACCAUCAUUUAGAAUAGAGGUUGUUAUAAUUAAGCAACAAAUGGGUUUCCUUAAACCAGAGAUGCACUGCCCUUGUCUGAAGUUC | 0.505 |
| UAAUUCAAUGGUUGAGGGUUCAGAACUCAAAAAGGUUCGCUCCAACUCUAGAAUUUAUCAUAGGUACUUUUUACUGGAUGCCGACAUGCAGAGCCUAAGGUGGGAGCCAUCAAAGAAGGA | 0.298 |
| UGUCUGCCUCAUUCUAAAAUUUACACAGUAGACCAUUUGUCAUCCAUGCUGUCCCACAAAUAGUUUUUUGUUUACGAUUUAUGACAGGUUUAUGUUACUUCUAUUGGAAUUUCUGUAUUU | 1.41 |
| GUGCUGUGUAUCCAUUUGAGGGGGUUCUCCUCUGAGCUGCCAAGAAGGAAGAAGCCUACCUAGAGCCCUUACAUAUCUGAUUAUACCAUUCUGGUCUGUUUCCUGCUUUUUCUUUUCUCU | 0.636 |
| AAUAAGCUCUAGUUCUUAAGAUCCAACACUCCUAAAAGAGUUAGGAAGAAAAUAAAAGUUUACAACAUAACCUAGUCUUGUGCUAGAAUACUUUUUUAAAAAGUAUUUUUGAAUAUCAUU | 0.109 |
| UGCAUUUUGCAUCUUGGAUGUGGUCUGCGCGAGGAAGCUGCUGGCCCCUCCACAACAACAAAUAAAACGUUUGUCAUUUUUUUAAGAUGUUAAAACGGAAUCGAAUUUACUAAAAAUGUA | 0.169 |
| UGCUGUUAAUGCACUGUAUACCAGGCAUCGUCUGAUCUUAGUGUAAUCUAGGAGAUUUUAUAGUUUUAUUUUAAUGAAGUAUGGAUUGAUGCAAAGCUGUUAGGAAAACGUAGUCUUUUA | 2.58 |
| UUGUGGCCGCUUCUCCCCUGCCUCAGUGAGGUAAAUUCUCCCUUGGCAUUUGGUUGGUACCAGAGUCAGCCACACCUAAUACAUGUUUCCACAUUUCUUUCACACUCGUAGUCAUCUUCG | 0.359 |
| UGAAGAUGGUGGUUGUACAUUAUUUCAUUUAGAAAAUAUAAAACUUCAUUUUGUUUAAGCUAGGUGUUAAACUGGAAUAGCUAUUCUACCCUAGAGAAUGGGGCAGCUGUGCCCUUCCCU | 1.47 |
| AUUCAAACCUGUGGUGCCAUGGCCUCAUGUUGAAGGAAUAGAAGUGGACUUAGAGUCUAUUAGAAGAAAAAACAAAGCUAAAAAUGAACAAGAGCACCAUGCUGGAGGAGAUUCCCAGAA | 0.599 |
| CUAUAAUUAUGAAAAUCUAAAGGAUUUUUAAUGUUUAAUUUCCCCCAACAUGUUAAGACACCUUUUUCCAGGCAGAUCAUUUGGAGUGUGCGAGUGUGUGUGCACAUGUUACAAAGACAU | 0.234 |

Series 4 — method: protein-binding microarray; molecule type: double-stranded DNA, one strand shown; sample: in vitro; concentration: 2540 nM top; setting: 60-bp whole probe; with: salmon DNA 0.4 mg/ml; relative to: random background probes; direction: higher = stronger binding; constant ends, left off below: GCCTAGCAC … GTCTTGATTCGCTTGACGCTGCTG
Target: Interferon regulatory factor 3, full length, phosphomimetic (IRF3, Homo sapiens, UniProt Q14653, residues 1-427, S386D/S396D/S398D/S402D/T404D/S405D)
Residues (chain): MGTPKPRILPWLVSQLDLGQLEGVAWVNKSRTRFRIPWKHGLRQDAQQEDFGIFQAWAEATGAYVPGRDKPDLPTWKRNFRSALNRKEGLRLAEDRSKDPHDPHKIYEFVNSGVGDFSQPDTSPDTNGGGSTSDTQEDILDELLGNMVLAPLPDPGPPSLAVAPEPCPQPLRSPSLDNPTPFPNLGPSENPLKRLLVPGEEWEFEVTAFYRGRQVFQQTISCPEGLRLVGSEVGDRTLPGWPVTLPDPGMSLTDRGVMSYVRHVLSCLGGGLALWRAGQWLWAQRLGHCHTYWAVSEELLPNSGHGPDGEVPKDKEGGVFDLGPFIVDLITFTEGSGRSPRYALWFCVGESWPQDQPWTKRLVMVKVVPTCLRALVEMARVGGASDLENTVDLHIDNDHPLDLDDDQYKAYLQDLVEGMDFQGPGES
| Strand | fitted relative affinity [z-score] |
| --- | --- |
| TTAGGTAGCCTTATCCTTTAGTGCTAG | 1.3 |
| TTCGGTATCGGGTTTCGGTTAGTGCTA | 4.26 |
| TTAGGTCTCGGTACCGGTTAGTGCTAG | 0.723 |
| GACGATTCGAGTTTCGAGACGTGCTAG | 1.51 |
| TTAGGGCTGGGACTGGGTTAGTGCTAG | -1.28 |
| TTATGTATCCTTCTCCTTTAGTGCTAG | 7.38 |
| TCATCATTTTTTTTCATACTGTGCTAG | 0.794 |
| TTAGGTATTGACTTTCGGTTAGTGCTA | 1.36 |
| GAAGAAATTTAATAGTCACTGTGCTAG | -0.628 |
| GACGGTTTCGACTTTCGGTACGTGCTA | 4.32 |
| ACCACTCTTGCTTTTTAGATGTGCTAG | 1.51 |
| TTAGGTATCATTCTCCTTTAGTGCTAG | 4.74 |
| TTAGGTTTCCTTATGCTTTAGTGCTAG | 6.46 |
| GACGGTTTAGGTTCCGGGACGTGCTAG | 1.56 |
| TTAGGTATCGATCTCGGTTAGTGCTAG | 3.14 |
| TCATCTTTCACTGCTCCCACTGTGCTA | 1.27 |
| CAACATCTGCAAGATCCACAAGTGCTA | 0.093 |
